Published values pooled from the literature.
Protocols differ between the studies behind these lines.
Sequence of UniProt P11388 (whole entry, looked up): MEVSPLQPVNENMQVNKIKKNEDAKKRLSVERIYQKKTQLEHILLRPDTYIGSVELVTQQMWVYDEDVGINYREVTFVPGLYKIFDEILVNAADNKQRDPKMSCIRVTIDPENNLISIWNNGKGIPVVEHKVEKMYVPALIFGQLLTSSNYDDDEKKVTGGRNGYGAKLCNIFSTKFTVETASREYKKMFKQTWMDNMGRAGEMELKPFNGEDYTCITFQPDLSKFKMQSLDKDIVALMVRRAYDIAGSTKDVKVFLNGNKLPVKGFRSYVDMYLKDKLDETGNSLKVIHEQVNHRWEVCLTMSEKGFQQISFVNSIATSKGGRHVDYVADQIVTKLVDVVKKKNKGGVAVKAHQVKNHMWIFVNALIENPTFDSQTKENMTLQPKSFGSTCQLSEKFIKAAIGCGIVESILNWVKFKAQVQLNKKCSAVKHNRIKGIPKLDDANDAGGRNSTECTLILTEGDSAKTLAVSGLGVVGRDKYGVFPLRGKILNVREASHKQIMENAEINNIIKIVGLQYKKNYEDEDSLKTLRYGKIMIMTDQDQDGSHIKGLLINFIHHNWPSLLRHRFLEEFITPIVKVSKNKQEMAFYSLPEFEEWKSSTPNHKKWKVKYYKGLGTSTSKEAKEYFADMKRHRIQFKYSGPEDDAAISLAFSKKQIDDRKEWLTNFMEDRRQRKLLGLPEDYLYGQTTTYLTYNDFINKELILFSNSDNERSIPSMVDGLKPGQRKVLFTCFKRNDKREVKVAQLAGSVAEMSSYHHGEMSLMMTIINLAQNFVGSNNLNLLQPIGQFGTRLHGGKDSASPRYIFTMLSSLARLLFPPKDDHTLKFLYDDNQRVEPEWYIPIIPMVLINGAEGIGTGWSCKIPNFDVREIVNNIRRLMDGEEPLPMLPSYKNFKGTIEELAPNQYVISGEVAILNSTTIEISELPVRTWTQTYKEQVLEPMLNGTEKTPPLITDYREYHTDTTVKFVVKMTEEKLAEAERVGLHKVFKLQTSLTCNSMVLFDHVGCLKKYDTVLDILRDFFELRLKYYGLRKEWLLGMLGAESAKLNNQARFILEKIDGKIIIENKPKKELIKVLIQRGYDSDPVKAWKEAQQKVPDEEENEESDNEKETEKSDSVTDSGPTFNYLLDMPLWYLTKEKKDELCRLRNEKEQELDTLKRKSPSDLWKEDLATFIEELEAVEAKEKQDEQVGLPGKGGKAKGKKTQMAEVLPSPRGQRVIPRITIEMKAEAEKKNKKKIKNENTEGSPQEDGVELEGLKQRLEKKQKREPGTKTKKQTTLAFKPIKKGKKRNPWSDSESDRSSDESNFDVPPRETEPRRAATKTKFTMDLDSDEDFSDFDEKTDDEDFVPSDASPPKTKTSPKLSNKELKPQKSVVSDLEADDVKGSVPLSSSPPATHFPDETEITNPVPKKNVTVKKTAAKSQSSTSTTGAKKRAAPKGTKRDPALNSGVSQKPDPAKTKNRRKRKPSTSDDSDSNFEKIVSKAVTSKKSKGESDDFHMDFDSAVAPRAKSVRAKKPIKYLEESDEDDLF

`OC[C@H]1O[C@@H](O[C@@H]2[C@@H](O)[C@H](O[C@@H]3[C@@H](O)[C@H](O[C@@H]4[C@@H](O)[C@H](O[C@@H]5[C@@H](O)[C@H](O[C@H]6[C@H](O)[C@@H](CO)OC(O)[C@@H]6O)O[C@H](CO)[C@H]5O)O[C@H](CO)[C@H]4O)O[C@H](CO)[C@H]3O)O[C@H](CO)[C@H]2O)[C@H](O)[C@@H](O)[C@@H]1O` (stereo partly shown) has a ΔG of -23.6 kcal/mol (Bacteroides thetaiotaomicron; binding, ITC; pH 7.0, 25 °C, distal domain).
For `Fc1ccccc1Cc1nc(-c2nc(C(F)(F)F)n[nH]2)cn2ccnc12`, “subjects with hepatic enzyme increased” read 7.1% (healthy human subjects, both sexes; oral, 10 mg, fasted).
`CN(C)C(=N)N=C(N)N`: “subjects with adverse event” 4.5% (refers to: injury, poisoning, procedural complications; healthy men; oral, dose not given, 8 days, treatment-emergent, crossover trial).
`O=C(Nc1nc2cccc(-c3ccc(CN4CCS(=O)(=O)CC4)cc3)n2n1)C1CC1`: “patients with adverse event” 0% (refers to: injury or procedural complication; rheumatoid arthritis patients; oral, 30 mg once daily, 4 weeks, any relatedness).
The enantiomeric fraction of `CC1COc2ccccc2N1C(=O)C(Cl)Cl` (stereo not shown) is reported as 0.26 (carboxylesterase hydrolysis; rhesus monkey, male, liver microsomes; 5 µM, 30 min, pH 7.4, without NADPH).
`CO/N=C(\C(=O)N[C@@H]1C(=O)N2C(C(=O)O)=C(COC(C)=O)CS[C@H]12)c1csc(N)n1` has an MIC of > 16 µg/mL (Serratia fonticola; clinical isolate RKI-No_517/16).
For `CC(=O)CC(c1ccccc1)c1c(O)c2ccccc2oc1=O` (stereo not shown), “subjects with injury, poisoning” read 0% (human; concentration not given, trial 1).
For `NS(=O)(=O)c1cc(C(=O)O)c(NCc2ccco2)cc1Cl`, “subjects with adverse event” read 0% (refers to: injury, poisoning, procedural complications; healthy men; oral, 8 days, treatment-emergent, crossover trial).
`OC[C@H]1O[C@@H](O[C@@H]2[C@@H](O)[C@H](O[C@@H]3[C@@H](O)[C@H](O[C@@H]4[C@@H](O)[C@H](O[C@H]5[C@H](O)[C@@H](CO)OC(O)[C@@H]5O)O[C@H](CO)[C@H]4O)O[C@H](CO)[C@H]3O)O[C@H](CO)[C@H]2O)[C@H](O)[C@@H](O)[C@@H]1O` (stereo partly shown) gave a ΔG of -26.1 kcal/mol (Bacteroides thetaiotaomicron; binding, ITC; pH 7.0, 25 °C, middle domain).
`O=P(O)(O)O[C@H]1O[C@H](CO)[C@@H](O)[C@H](O)[C@H]1O`: phosphatase activity “inactive” (uncharacterized protein (Bacteroides thetaiotaomicron, UniProt Q8A183); activator, phosphate release; concentration not given, with: Mg2+).
With `COC(=O)Nc1c(N)nc(-c2nn(Cc3ccccc3F)c3ncc(F)cc23)nc1N` the Cmax was 402 ng/mL (human, male, fasting, plasma; 15 mg single dose, alone, geometric mean).
`Cc1cc(-c2nccc3c2ccn3CC(=O)Nc2ccc(-c3cnccn3)cn2)ccn1`: “injury or procedural TEAEs” 22.2% (healthy human volunteers; oral, 20 mg once daily, 14 days, multiple ascending dose).
`COc1ccc([C@@H](O)c2cc(-c3ncnc4cc(N5CCOCC5)ccc34)c(F)cc2Cl)nn1`: “injury poisoning procedural TEAE” 50% (locally advanced rectal cancer patients; 100 mg, with: capecitabine and radiotherapy).
`CC(C)(C(=O)N1CCOc2c(C#N)cncc2C1)C(F)F`: “subjects with adverse event” 0% (refers to: injury, poisoning, procedural complications; human; oral, 20 mg twice daily, 14 days, multiple ascending dose).
For `C[C@H]1O[C@@H](O[C@H]2[C@@H](O)C[C@H](O[C@H]3[C@@H](O)C[C@H](O[C@H]4CC[C@@]5(C)[C@H](CC[C@@H]6[C@@H]5C[C@@H](O)[C@]5(C)[C@@H](C7=CC(=O)OC7)CC[C@]65O)C4)O[C@@H]3C)O[C@@H]2C)C[C@H](O)[C@@H]1O`, “AUC(0-tau) at steady state” read 19.6 ng·h/mL (humans, plasma; dose not given, phase I DDI study, with: vericiguat).
`COc1cc([C@@H]2c3cc4c(cc3[C@@H](O[C@@H]3O[C@@H]5CO[C@@H](C)O[C@H]5[C@H](O)[C@H]3O)[C@H]3COC(=O)[C@H]23)OCO4)cc(OC)c1O`: “mean linear DNA” 13.2% (TOP2A (Homo sapiens, UniProt P11388); DNA cleavage; 12.5 µM).
`COC(=O)Nc1c(N)nc(-c2nn(Cc3ccccc3F)c3ncc(F)cc23)nc1N` gave a Cmax ratio of 1.01 (healthy men; oral, 10 mg daily, multiple dose, with: sildenafil 25 mg; reference: with over without sildenafil).
`CCn1c(=O)c(-c2cc(NC(=O)Nc3ccccc3)c(F)cc2Br)cc2cnc(NC)cc21`: “patients with grade 3+ TEAE” 0% (refers to: injury and poisoning; severe hepatic impairment; 50 mg single dose).
`N#CCC1CCN(c2nc(Nc3ccc(N4CCC(O)CC4)cc3)c3c(=O)[nH]ncc3n2)CC1`: “serum level change” -1.33 (Olink multiplex, refers to: CDCP1; human, serum; 40 mg, day 29, unit not given; reference: placebo).

Repeated from above:
`CN(C)C(=N)N=C(N)N`: “subjects with adverse event” 4.5% (refers to: injury, poisoning, procedural complications; healthy men; oral, dose not given, 8 days, treatment-emergent, crossover trial).
